# Experimental data of several laboratories.
# Parts stem from different laboratories: compare values within a part only.

# Block 1 — method: universal PBM; molecule type: double-stranded DNA, one strand shown; medium: in vitro; tested at: 600 nM; direction: higher = stronger binding
# Target: Sal-like protein 4, full length isoform A (SALL4, Homo sapiens, UniProt Q9UJQ4, residues 1-1053)
# Sequence of UniProt Q9UJQ4 (whole entry, looked up): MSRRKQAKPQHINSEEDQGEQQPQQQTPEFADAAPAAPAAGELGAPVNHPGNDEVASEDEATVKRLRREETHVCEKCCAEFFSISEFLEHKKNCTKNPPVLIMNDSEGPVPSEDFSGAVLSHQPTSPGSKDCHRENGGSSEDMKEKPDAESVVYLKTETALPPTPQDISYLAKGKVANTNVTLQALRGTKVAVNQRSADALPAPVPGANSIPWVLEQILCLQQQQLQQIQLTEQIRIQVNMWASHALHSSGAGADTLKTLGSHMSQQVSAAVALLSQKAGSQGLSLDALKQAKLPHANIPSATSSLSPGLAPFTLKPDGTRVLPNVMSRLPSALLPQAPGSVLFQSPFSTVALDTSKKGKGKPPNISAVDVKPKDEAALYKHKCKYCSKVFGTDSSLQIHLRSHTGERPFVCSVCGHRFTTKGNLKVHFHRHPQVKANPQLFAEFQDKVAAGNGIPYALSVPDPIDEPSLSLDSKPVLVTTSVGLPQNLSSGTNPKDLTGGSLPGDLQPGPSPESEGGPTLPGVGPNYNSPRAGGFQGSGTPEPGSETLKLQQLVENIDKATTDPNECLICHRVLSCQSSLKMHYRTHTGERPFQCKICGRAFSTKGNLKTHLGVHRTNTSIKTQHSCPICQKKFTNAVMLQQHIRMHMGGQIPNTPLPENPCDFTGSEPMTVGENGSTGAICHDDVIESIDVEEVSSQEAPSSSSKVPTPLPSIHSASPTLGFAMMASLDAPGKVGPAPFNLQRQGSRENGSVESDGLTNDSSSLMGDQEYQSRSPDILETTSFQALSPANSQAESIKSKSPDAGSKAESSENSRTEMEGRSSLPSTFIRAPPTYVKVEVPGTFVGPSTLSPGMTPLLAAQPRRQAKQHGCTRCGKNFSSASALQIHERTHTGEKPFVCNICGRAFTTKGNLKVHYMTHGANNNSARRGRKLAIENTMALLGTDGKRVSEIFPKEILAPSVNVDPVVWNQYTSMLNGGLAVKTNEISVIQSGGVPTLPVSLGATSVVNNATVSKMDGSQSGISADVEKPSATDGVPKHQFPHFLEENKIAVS
# Notes: 8-mer, flanks averaged, mean of replicates
Oligonucleotide,E-score
TCGGAACA,-0.0249
GAGTGATC,-0.0781
GGGACAAC,-0.264
GGACGACC,-0.402
CCCCACGG,-0.36
GCGACTAA,0.0225
GCTTTACA,0.0259
GTCTACTA,0.153
ATACCTCA,0.149
CACTGGCA,-0.0946
ATGATTCG,0.0222
ACAGTAGC,-0.112
GACGCCTC,-0.183
ATTTCAGG,0.076
ACAAGGTG,-0.0523

# Block 2 — method: protein binding microarray; molecule type: double-stranded DNA, one strand shown; medium: in vitro; tested at: not given; baseline: not given; direction: higher = stronger binding
# Target: Histone acetyltransferase KAT6A, both winged helices, GST fusion (KAT6A, Homo sapiens, UniProt Q92794, residues 1-181)
# Notes: 8-mer, flanks averaged, mean of 2 arrays, mostly near background
# Construct (chain): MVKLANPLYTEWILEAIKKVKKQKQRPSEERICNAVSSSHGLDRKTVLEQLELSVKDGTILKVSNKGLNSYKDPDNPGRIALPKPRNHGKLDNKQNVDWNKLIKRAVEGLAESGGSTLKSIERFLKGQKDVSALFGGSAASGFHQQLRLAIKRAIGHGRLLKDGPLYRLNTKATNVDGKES
Oligonucleotide,E-score
AATAGCCT,-0.223
TAAATTCA,-0.152
GCCTTTAC,0.121
CGTCTGGA,0.00218
CTGTGACC,-0.0968
ATACGTGG,0.0105
ACTATGGC,-0.044
CGATGTAG,-0.0853
GCATGTGA,0.0116
GGGTTGCA,0.0449
GGTAATAC,-0.101

# Block 3 — method: RNA Bind-n-Seq; molecule type: RNA; medium: in vitro; tested at: not given; notes: RNA with constant flanks, ends assumed; baseline: input RNA pool; direction: higher = stronger binding
# Target: RING finger protein unkempt homolog, zinc fingers 1-6, GST-SBP tag (UNK, Homo sapiens, UniProt Q9C0B0, residues 30-357)
# Shared flanks, not repeated: GGGAGUUCUACAGUCCGACGAUC … CAACAGAGGAUUGAGCAUCA
# Construct (chain): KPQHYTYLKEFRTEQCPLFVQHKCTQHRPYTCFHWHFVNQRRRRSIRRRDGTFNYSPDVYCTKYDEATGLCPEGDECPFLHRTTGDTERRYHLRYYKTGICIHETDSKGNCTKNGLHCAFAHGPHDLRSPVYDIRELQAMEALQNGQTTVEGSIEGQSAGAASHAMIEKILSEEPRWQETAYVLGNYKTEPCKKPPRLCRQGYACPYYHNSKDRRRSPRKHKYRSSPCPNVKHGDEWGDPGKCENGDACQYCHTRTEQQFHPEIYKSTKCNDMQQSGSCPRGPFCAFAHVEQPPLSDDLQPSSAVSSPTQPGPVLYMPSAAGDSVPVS
Oligonucleotide,bound/input enrichment
CACGCAGCAGUUGUGGUCAAUAUUGUGGUAGUCGCUAAUUGUACUGGUUUAAGUGUGCAUCCGCCGUGUCUCCCCAGCUAGAUUGUAAGCUCCUGGAGACAGGGACCACCUCCACCAAAA,0.175 ratio
CUUGUAUUUCCUCCUUCUGUUGCUCUCUUUCAUUCACACACUCUCAGUUUCUCAUAUUUGCCGCUCAUUUAUUUGGUUAUUUCCUAAGAAUAUUGAAAGUGAAGCAACUAUGUGACUGUA,0.106 ratio
CAGCAUGUCAUAGAAACCUUGAUUGGCAAAAAGCAACAGAUAUCUCUUGCAACACAAAUGGUCCGAAUGAUUUUGAAGAUUGAUGACAUUCGUAAGCCUGGAGAAUCUGAAGAAUGAAGA,0.286 ratio
AGUGCUGCAGCAGCUCCCAGUCCAGUGCUAGGAAACAUUCCCCCAGGAGAUGGCAUGCCAGCCGGUCCUGUACCACCAGGGUUCUUUCAGGCACUUGGAGGUGUCCCAGGAAGUCAGCCA,0.0935 ratio
AAGGAACUGCAGGUUGAACUGUCUGGCUGAAGCAAUGGCGGGUAUGGCAAGCCCCUCCCACCGUAAAUCCCCCUGCCUAUAUUAUAAUGGAUCAUGCGAUAUCAGUAUGGGAAGUGUAUG,0.221 ratio
CAGAUUCCCAGCCUUUCAGCCAACCGUUCUCUCACAGAAGGCCUUGUCCUGGACACAAUGAAUGACCGCCUCAGCAAGAUCCUUCUAGACAUCAGUUUCCCUGGCCUGGAGGAGGACCCU,0.186 ratio
GAGGUCCUGAGACAGGAAGACAAAGCUGAAGCCAUGUCCGGCCAUAUUGAUCAGUUUCUGACCGCCACUUUUAUGCAGCUAAGACUCAUCUACAACACACACAUGGCAGAUGAGAAAUUG,0.214 ratio
AACCACUGACGUGUUUUUAUUUCCUUCUAUAUGAUUUUAAGAUGUGUUUUCUGCAUUCUGUACCGAAACAUAUCAAACUAAAUAAAAGCAGUGUCUUUAUUACAAUGUCAUUGCCUCUGA,0.146 ratio

# Mixed results
Substance,target,assay,test system,setting,how to read,measurement,value
"PhoQ, residues 284 288 289 292 302 303 SSCLAV","PhoP, residues 12 14 15 18 19 AQCLL (Escherichia coli, UniProt P23836)","Sort-seq, measured: YFP reporter",E. coli,"PhoQ-PhoP variant library, with: 10 µM Mg2+","baseline: high Mg2+ state, higher = stronger signaling",fold induction,2.57

# For quick reference, copied from above (block 2):
Oligonucleotide,E-score
GCCTTTAC,0.121
GCATGTGA,0.0116
CGATGTAG,-0.0853
